# Assay results collected from several papers.
# Each numbered part is a random draw from the data of one study; scales do not carry over between parts. “And” joins repeats or separate records; there may be more than shown. Positions count from the first letter of the parent shown.
# Chain of UniProt Q07912 (whole entry, looked up): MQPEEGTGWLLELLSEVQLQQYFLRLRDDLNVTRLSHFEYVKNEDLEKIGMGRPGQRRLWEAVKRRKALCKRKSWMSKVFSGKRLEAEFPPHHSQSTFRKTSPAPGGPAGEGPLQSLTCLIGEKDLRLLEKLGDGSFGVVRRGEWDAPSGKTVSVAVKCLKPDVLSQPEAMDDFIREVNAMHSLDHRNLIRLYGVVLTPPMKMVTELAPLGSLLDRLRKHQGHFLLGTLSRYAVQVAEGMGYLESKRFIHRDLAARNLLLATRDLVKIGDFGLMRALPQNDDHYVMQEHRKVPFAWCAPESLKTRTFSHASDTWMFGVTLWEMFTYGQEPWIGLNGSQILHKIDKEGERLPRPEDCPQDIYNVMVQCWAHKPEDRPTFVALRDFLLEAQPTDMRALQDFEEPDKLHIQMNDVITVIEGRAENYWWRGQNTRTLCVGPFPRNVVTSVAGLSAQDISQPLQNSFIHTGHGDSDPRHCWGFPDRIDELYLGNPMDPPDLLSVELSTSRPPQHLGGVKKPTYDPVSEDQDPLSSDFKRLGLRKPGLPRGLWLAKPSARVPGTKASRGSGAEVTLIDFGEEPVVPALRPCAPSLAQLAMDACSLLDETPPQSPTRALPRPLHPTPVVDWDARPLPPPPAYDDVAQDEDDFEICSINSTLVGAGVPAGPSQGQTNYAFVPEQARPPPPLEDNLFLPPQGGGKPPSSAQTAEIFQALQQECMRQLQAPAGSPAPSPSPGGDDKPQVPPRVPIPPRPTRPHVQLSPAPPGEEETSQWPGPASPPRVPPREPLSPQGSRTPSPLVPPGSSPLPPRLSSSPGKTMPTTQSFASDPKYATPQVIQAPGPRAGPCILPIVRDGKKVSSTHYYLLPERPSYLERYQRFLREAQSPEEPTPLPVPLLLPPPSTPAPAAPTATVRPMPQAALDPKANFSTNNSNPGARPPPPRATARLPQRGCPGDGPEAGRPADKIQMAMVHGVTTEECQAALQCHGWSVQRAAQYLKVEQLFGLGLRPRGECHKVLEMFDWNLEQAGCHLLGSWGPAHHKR
# Chain of UniProt P14616 (whole entry, looked up): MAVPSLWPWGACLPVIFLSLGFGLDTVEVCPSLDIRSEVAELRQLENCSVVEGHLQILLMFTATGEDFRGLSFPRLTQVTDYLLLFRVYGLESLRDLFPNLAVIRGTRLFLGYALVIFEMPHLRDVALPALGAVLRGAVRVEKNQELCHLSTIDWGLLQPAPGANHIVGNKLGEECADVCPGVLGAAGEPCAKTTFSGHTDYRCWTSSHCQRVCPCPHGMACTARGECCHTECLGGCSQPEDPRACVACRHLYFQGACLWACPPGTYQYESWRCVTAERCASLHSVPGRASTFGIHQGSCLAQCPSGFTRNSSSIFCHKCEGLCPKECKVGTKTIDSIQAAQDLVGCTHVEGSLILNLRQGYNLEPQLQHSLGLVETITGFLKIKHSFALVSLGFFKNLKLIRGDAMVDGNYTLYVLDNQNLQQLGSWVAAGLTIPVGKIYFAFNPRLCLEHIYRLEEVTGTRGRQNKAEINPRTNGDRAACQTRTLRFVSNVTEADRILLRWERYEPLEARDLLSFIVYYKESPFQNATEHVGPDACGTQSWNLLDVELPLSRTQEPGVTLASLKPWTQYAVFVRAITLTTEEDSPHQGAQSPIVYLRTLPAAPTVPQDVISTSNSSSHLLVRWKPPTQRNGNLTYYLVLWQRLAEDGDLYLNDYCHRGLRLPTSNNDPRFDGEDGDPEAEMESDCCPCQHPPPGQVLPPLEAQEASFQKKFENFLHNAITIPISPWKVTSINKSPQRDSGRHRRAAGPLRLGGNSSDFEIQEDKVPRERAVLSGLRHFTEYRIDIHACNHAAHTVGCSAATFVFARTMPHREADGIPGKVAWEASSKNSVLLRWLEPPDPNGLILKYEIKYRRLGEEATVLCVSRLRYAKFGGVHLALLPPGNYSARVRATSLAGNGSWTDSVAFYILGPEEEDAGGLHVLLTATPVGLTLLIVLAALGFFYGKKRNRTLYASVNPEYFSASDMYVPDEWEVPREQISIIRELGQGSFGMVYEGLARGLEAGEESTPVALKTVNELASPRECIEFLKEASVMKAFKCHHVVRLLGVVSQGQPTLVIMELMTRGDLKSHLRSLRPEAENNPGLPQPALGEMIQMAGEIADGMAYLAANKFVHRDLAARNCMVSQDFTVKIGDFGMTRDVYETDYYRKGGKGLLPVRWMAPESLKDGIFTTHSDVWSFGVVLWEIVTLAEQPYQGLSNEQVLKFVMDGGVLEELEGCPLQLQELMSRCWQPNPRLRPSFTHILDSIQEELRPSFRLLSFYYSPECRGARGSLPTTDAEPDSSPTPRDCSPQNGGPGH
# Chain of UniProt P0C264 (whole entry, looked up): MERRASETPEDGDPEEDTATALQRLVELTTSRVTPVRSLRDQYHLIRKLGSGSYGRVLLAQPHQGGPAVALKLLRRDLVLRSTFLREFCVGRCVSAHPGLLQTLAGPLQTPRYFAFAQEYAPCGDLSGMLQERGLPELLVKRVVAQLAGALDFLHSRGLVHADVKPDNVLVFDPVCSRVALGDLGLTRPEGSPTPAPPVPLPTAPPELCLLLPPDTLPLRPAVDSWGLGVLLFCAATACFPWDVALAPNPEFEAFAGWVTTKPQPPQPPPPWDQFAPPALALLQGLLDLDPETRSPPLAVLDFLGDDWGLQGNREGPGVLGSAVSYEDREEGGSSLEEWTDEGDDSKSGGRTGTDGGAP
# Chain of UniProt P49336 (whole entry, looked up): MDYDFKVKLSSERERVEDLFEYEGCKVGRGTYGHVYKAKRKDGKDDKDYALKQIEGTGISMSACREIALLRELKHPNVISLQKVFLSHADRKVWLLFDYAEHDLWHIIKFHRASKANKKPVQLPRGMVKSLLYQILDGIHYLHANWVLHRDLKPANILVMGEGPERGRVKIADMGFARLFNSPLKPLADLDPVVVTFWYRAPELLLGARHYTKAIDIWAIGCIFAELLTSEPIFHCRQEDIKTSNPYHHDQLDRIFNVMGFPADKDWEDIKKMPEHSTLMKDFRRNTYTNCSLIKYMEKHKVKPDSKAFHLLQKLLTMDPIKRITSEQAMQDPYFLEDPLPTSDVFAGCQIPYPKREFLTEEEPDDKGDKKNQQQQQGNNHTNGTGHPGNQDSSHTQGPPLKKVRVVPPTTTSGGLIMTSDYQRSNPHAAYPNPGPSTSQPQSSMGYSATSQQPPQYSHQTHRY
# Chain of UniProt Q99759 (whole entry, looked up): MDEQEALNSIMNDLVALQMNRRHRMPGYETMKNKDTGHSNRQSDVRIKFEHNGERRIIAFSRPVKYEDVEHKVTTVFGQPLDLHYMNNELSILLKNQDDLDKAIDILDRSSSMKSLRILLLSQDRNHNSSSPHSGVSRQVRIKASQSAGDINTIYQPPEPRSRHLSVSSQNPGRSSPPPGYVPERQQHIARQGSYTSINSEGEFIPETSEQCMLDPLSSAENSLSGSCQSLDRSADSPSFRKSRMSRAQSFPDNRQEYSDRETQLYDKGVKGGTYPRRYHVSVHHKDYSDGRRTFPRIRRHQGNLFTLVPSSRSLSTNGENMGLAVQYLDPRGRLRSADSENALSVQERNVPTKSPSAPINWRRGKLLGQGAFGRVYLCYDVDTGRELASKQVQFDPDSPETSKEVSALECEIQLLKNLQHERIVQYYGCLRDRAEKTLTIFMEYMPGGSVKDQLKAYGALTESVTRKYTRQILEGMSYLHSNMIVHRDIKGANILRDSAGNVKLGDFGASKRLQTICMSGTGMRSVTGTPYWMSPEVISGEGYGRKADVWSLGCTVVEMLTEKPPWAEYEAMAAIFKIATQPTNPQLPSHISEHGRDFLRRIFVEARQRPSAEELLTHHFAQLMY
# Chain of UniProt Q9BXA7 (whole entry, looked up): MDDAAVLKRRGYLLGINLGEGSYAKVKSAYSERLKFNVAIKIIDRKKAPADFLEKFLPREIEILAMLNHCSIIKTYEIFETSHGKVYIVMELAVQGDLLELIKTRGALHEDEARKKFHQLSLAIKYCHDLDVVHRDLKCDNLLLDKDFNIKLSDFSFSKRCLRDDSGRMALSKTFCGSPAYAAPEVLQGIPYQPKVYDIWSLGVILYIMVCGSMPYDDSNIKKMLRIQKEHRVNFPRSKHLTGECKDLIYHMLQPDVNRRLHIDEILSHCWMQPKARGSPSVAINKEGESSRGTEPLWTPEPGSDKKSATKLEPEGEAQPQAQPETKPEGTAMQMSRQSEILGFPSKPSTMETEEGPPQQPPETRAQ

# Set 1
# Target: Interleukin-1 receptor-associated kinase 4 (IRAK4, Homo sapiens, UniProt Q9NWZ3)
# Chain of UniProt Q9NWZ3 (whole entry, looked up): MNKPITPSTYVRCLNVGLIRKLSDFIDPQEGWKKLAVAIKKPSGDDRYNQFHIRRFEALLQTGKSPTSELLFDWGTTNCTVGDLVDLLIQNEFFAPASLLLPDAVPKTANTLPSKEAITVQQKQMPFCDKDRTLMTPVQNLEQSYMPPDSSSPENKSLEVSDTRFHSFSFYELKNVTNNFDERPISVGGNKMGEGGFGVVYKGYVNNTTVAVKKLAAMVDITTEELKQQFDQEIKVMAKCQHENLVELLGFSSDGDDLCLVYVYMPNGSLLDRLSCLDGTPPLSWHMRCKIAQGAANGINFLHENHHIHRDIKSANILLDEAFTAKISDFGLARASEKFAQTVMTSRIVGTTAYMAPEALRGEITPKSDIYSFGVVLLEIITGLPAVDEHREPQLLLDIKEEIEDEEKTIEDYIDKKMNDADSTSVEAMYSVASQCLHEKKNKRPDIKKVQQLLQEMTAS
# Effect on: enzyme activity
# Mode: inhibitor
# Concentration: 0.5 µM
# Reference: control
SMILES,remaining activity [%]
Cn1nc2c3c(cccc31)C(=O)c1ccccc1-2,97.3
CCN(CC)C(=O)c1ccc(Nc2nc(OCC3CCCCC3)c3[nH]cnc3n2)cc1,92.4
O=C(NC(NC(=S)Nc1ccc(F)c([N+](=O)[O-])c1)C(Cl)(Cl)Cl)C(c1ccccc1)c1ccccc1 (stereo not drawn),191
N#C/C(=C\c1ccc(O)c(O)c1)C(=O)NCc1ccccc1,93.7
O=C(Nc1cccc(Nc2nccc(Nc3cccc(C(F)(F)F)c3)n2)c1)C1CC1,146
CCOc1nc(NC(=O)Cc2cc(OC)ccc2OC)cc(N)c1C#N,94.9
Ic1cccc(CSc2nnc(-c3ccncc3)o2)c1,105
O=C1c2ccccc2-c2n[nH]c3cccc1c23,95.7
N#Cc1c(NC(=O)c2cccc3ccccc23)sc2c1CCCC2,92.9
c1ccc(-c2cnc(Nc3ccc(OCCN4CCCC4)cc3)s2)cc1,86.1
Cc1cn(-c2cc(NC(=O)c3ccc(C)c(Nc4nccc(-c5cccnc5)n4)c3)cc(C(F)(F)F)c2)cn1,80.2
CCN(CC)CCNC(=O)c1c(C)[nH]c(/C=C2\C(=O)Nc3ccc(F)cc32)c1C,27.4
COc1cc2ncnc(Nc3cccc(Cl)c3)c2cc1OC,77.7
CN(C)C[C@H]1CCn2c(c(C3=C(c4cn(C)c5ccccc45)C(=O)NC3=O)c3ccccc32)C1,107
Nc1cccc(-c2cc3c(Oc4cccc(O)c4)ncnc3[nH]2)c1,88.2
CCN(CC)CCNC(=O)c1c(C)[nH]c(/C=C2\C(=O)Nc3ccc(Cl)cc32)c1C,22.7
COc1cc2ncnc(Nc3ccc(O)c(Br)c3)c2cc1OC,91.1
O=C1C(Cl)=C(N2C(=O)CCC2=O)C(=O)c2ccccc21,89.1
Cc1cc2ncc(-c3ccccc3)nc2cc1C,93.1
C[C@@H]1CCN(C(=O)CC#N)C[C@@H]1N(C)c1ncnc2[nH]ccc12,88.5
c1ccc(-c2[nH]ncc2-c2ccnc3ccccc23)nc1,87.7
O=c1cc(-c2cccc3c2Sc2ccccc2S3)oc(N2CCOCC2)c1,160
COc1cc2c(cc1OC)-c1[nH]nc(Nc3cccc(F)c3)c1C2,70
CN([C@@H](Cc1ccc(OS(=O)(=O)c2cccc3cnccc23)cc1)C(=O)N1CCN(c2ccccc2)CC1)S(=O)(=O)c1cccc2cnccc12,92.1
Cc1nc2cc3nc(-c4cccs4)cnc3cc2n1C,201

# Set 2
# SMILES: CS(=O)(=O)N1CCCC(NC(=O)[C@H](CCC2CCCCC2)NC(=O)c2ccc(CNc3ncnc4c3nnn4-c3ccccc3)cc2)C1 (stereo partly drawn)
# Method: competition with immobilised ligand
# Concentration: 0.1 µM
target,effect on,remaining binding [%]
"MAP4K4 (Homo sapiens, UniProt O95819)",cell-free assay,66
"NEK1 (Homo sapiens, UniProt Q96PY6)",cell-free assay,51
"RET (Homo sapiens, UniProt P07949, V804M)",cell-free assay,82
"TNK2 (Homo sapiens, UniProt Q07912)",cell-free assay,91
"ALK (Homo sapiens, UniProt Q9UM73, L1196M)",cell-free assay,100
"ANKK1 (Homo sapiens, UniProt Q8NFD2)",cell-free assay,80
"Myosin-IIIb (MYO3B, Homo sapiens, UniProt Q8WXR4)",binding,100
"TSSK1B (Homo sapiens, UniProt Q9BXA7)",cell-free assay,85
"SBK3 (Homo sapiens, UniProt P0C264)",cell-free assay,100
"SRC (Homo sapiens, UniProt P12931)",cell-free assay,94
"MAP3K3 (Homo sapiens, UniProt Q99759)",cell-free assay,100
"CDK8 (Homo sapiens, UniProt P49336)",cell-free assay,100
"INSRR (Homo sapiens, UniProt P14616)",cell-free assay,100

# Set 3
# Target: PABPC1L2, full length, GST fusion (mouse, UniProt A0ABA7IW68)
# Method: RNAcompete
# Molecule type: RNA
# Medium: in vitro
# Concentration: 20 nM
# Notes: 7-mer, probes averaged, single round
# Reference: mean of 7-mers
# Direction: higher = stronger binding
# Residues (chain): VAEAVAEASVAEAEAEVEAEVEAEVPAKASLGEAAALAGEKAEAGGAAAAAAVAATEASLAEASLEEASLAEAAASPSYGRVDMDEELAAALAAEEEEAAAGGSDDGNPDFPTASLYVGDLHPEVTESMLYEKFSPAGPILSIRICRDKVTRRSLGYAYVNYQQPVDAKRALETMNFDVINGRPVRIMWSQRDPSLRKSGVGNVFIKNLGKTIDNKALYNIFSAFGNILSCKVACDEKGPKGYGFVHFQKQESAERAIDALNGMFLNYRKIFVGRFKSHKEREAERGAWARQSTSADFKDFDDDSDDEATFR
Sequence,7-mer Z-score
CCUUAGA,-0.209
AAACUUG,1
GGGUCAG,0.332
UGAUUAG,-0.121
GUGCUGA,0.046
GGAAAGU,0.0877
GAUUUGU,-0.311
AAACAUA,3.62

# Set 4
# Target: JUN, bZIP domain (human)
# Method: DHFR protein complementation
# Medium: yeast
# Notes: single substitutions, most at no-binding floor
# Reference: wild-type JUN-FOS pair
# Direction: higher = stronger binding
# Starting sequence: JUN, bZIP domain (human); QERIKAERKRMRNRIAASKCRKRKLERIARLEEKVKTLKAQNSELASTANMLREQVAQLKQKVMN
Change,binding fitness
L31E,-1.45 natural log
V35G,-1.27 natural log
L52P,-1.34 natural log
S43P,-1.34 natural log
L38K,-1.36 natural log
L59S,-1.26 natural log

# Mixed results
SMILES,test,system,setting,scale,endpoint,result
CC(=O)N[C@@H](Cc1c[nH]c2ccccc12)C(=O)N[C@@H](CCC(=O)C=[N+]=[N-])C(=O)OC(C)C,UPLC-MS/MS,"EL4 tumor, C57BL/6 CES1-/- mice, tumor","subcutaneous, 0.3 mg/kg DON equivalent daily, 5 days",higher = more metabolite,thiamin monophosphate level,731000 a.u. and 1.22e+06 a.u. and 906000 a.u. and 1.1e+06 a.u. and 1.02e+06 a.u. and 1.17e+06 a.u.
CC(C)n1cnc(-c2ccc(F)cc2)c1-c1ncc(C(=O)Nc2ccc(N3CCN(C)CC3)cc2)[nH]1,,IPF patients,"30 mg once daily, adverse event",,carbon dioxide decreased incidence,0%

# Some of these lines once more (set 2):
target,effect on,remaining binding [%]
"ALK (Homo sapiens, UniProt Q9UM73, L1196M)",cell-free assay,100
"ANKK1 (Homo sapiens, UniProt Q8NFD2)",cell-free assay,80
"Myosin-IIIb (MYO3B, Homo sapiens, UniProt Q8WXR4)",binding,100
"TSSK1B (Homo sapiens, UniProt Q9BXA7)",cell-free assay,85
"SBK3 (Homo sapiens, UniProt P0C264)",cell-free assay,100
"SRC (Homo sapiens, UniProt P12931)",cell-free assay,94
"MAP3K3 (Homo sapiens, UniProt Q99759)",cell-free assay,100
"CDK8 (Homo sapiens, UniProt P49336)",cell-free assay,100
